Assay results from different studies.
Every numbered part comes from another study and shows a few of its results, in no order. Several values in a cell are separate wells, animals, samples, runs or records.

Sample 1 — method: universal PBM; molecule type: double-stranded DNA, one strand shown; matrix: in vitro; tested at: 600 nM; direction: higher = stronger binding
Target: Sal-like protein 4, full length isoform A (SALL4, Homo sapiens, UniProt Q9UJQ4, residues 1-1053)
Chain of UniProt Q9UJQ4 (whole entry, looked up): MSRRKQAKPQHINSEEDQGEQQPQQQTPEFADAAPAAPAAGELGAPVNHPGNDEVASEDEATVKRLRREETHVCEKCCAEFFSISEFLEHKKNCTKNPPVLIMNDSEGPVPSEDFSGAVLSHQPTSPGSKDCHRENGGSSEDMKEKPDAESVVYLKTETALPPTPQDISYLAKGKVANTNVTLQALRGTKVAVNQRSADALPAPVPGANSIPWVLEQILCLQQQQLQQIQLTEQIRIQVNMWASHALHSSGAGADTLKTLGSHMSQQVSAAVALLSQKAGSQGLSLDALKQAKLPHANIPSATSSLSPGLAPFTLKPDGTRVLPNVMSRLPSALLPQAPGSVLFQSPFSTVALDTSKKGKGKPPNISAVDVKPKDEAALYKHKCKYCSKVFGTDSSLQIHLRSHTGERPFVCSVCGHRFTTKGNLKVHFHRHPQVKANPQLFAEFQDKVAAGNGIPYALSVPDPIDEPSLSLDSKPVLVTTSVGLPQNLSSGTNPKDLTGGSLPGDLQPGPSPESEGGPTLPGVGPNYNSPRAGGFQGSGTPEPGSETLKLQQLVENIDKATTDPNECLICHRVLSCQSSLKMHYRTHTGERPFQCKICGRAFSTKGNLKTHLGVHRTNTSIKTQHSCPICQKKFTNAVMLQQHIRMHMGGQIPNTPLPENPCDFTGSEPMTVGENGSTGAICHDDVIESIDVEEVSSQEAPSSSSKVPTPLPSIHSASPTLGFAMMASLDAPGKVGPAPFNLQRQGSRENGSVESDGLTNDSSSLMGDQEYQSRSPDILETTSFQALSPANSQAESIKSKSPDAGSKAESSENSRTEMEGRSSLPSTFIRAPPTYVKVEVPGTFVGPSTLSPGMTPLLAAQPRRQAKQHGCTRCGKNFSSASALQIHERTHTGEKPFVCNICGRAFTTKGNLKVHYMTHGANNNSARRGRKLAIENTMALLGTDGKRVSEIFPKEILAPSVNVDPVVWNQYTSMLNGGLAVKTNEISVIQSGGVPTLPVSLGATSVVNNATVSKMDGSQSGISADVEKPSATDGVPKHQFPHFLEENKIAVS
Setting: 8-mer, flanks averaged, mean of replicates
Sequence	E-score
TGACGTAA	0.165
CATACTGA	0.148
CTAACCAC	-0.0101
CTGAGAGA	-0.103
CTCAAATA	0.247

Sample 2 — method: protein-binding microarray; molecule type: double-stranded DNA, one strand shown; matrix: in vitro; tested at: 2540 nM top; setting: 60-bp whole probe; with: salmon DNA 0.4 mg/ml; relative to: random background probes; direction: higher = stronger binding
Target: Interferon regulatory factor 3, full length, phosphomimetic (IRF3, Homo sapiens, UniProt Q14653, residues 1-427, S386D/S396D/S398D/S402D/T404D/S405D)
Chain of UniProt Q14653 (whole entry, unmodified, looked up): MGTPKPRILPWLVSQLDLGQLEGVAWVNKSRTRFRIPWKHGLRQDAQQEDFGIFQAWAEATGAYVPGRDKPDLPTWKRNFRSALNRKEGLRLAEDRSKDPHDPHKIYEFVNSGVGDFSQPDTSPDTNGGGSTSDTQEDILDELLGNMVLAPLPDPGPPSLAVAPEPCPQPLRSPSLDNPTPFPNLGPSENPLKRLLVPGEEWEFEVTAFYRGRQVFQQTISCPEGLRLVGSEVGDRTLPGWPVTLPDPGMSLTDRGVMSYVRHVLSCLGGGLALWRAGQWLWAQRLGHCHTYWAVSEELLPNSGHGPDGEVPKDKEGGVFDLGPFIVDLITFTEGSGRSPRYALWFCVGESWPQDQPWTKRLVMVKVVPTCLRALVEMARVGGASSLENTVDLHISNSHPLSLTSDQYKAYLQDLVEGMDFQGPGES
Sequence	fitted relative affinity [z-score]
GCCTAGCACCACTCCACCTCTGTGCTCTTGTGCTAGGTCTTGATTCGCTTGACGCTGCTG	0.425
GCCTAGCACGACGAACTAAGTTTCGAGACGTGCTAGGTCTTGATTCGCTTGACGCTGCTG	2
GCCTAGCACTTAGACATCGGGTATCGATTAGTGCTAGTCTTGATTCGCTTGACGCTGCTG	-0.302
GCCTAGCACTTAGAGATCGGGACTGGATTAGTGCTAGTCTTGATTCGCTTGACGCTGCTG	-0.339

Sample 3 — method: protein binding microarray; molecule type: double-stranded DNA, one strand shown; matrix: in vitro; tested at: not given; relative to: not given; direction: higher = stronger binding
Target: Histone acetyltransferase KAT6A, both winged helices, GST fusion (KAT6A, Homo sapiens, UniProt Q92794, residues 1-181)
Setting: 8-mer, flanks averaged, mean of 2 arrays, mostly near background
Target sequence (chain): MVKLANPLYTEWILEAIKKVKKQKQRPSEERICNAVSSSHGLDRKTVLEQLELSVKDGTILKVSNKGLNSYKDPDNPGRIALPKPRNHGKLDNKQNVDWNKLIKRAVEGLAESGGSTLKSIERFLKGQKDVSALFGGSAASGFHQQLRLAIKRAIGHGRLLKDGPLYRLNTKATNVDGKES
Sequence	E-score
AAATAGAA	-0.00193
CTTCCAAG	-0.182
GTGCGGGA	0.294
CCGACAGG	0.042
GCAACCCA	-0.136
CCAGGGCG	0.143

Mixed results
Molecule	target	test	test system	conditions	scale	quantity	result
PhoQ, residues 284 288 289 292 302 303 SNSSNI	PhoP, residues 12 14 15 18 19 LWHCS (Escherichia coli, UniProt P23836)	Sort-seq, item: YFP reporter	E. coli	PhoQ-PhoP variant library, with: 10 µM Mg2+	relative to: high Mg2+ state, higher = stronger signaling	fold induction	4.71 and 6.91
